Assay results from different studies.
Every numbered part comes from another study and shows a few of its results, in no order. Several values in a cell are separate wells, animals, samples, runs or records.
UniProt O94768, sequence (whole entry, looked up): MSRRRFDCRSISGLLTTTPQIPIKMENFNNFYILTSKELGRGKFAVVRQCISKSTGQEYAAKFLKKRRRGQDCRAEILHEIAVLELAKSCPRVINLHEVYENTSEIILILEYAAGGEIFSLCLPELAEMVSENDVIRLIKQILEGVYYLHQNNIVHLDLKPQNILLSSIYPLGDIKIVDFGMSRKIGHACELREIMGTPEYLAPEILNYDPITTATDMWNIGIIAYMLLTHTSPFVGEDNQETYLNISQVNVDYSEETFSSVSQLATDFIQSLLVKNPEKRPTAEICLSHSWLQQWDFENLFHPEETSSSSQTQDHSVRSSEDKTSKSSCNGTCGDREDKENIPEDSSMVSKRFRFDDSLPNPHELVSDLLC
UniProt O14757, sequence (whole entry, looked up): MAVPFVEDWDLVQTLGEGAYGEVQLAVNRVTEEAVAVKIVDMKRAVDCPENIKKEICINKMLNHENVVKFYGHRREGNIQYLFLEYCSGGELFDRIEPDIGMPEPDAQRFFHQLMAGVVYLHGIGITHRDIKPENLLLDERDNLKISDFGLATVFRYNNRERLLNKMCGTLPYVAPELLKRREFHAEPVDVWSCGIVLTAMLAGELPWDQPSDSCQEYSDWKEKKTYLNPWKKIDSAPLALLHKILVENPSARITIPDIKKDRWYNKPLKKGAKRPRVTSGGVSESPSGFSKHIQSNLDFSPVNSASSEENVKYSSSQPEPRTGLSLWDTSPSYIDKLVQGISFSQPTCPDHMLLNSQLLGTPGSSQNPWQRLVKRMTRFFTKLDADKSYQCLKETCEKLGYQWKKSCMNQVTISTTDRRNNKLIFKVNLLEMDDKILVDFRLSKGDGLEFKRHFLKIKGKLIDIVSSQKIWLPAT
UniProt O15197, sequence (whole entry, looked up): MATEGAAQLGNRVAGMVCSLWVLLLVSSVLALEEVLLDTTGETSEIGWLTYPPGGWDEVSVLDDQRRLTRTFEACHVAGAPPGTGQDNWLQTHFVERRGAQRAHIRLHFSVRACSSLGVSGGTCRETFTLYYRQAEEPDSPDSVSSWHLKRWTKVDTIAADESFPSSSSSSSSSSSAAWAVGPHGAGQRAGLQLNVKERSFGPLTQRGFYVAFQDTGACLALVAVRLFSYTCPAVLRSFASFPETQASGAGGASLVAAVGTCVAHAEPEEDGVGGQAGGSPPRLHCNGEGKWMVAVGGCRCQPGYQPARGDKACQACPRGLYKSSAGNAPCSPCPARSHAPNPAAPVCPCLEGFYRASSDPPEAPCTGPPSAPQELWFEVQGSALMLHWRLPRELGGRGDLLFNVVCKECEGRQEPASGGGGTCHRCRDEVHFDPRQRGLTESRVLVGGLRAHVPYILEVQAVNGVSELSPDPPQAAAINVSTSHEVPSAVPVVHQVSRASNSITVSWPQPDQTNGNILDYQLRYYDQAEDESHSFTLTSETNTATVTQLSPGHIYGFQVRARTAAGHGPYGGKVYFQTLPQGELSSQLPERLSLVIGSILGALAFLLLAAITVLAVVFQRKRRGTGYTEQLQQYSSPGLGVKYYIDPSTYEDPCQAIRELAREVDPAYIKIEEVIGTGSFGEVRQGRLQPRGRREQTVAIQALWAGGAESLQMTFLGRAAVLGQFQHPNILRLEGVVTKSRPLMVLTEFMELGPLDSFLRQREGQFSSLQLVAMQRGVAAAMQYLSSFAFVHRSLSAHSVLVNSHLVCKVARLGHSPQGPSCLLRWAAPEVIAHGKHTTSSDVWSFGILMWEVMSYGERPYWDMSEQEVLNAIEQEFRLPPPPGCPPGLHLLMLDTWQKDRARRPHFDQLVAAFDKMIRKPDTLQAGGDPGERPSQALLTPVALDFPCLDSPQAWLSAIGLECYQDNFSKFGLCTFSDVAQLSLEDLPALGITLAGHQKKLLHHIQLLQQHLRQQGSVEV
UniProt P25098, sequence (whole entry, looked up): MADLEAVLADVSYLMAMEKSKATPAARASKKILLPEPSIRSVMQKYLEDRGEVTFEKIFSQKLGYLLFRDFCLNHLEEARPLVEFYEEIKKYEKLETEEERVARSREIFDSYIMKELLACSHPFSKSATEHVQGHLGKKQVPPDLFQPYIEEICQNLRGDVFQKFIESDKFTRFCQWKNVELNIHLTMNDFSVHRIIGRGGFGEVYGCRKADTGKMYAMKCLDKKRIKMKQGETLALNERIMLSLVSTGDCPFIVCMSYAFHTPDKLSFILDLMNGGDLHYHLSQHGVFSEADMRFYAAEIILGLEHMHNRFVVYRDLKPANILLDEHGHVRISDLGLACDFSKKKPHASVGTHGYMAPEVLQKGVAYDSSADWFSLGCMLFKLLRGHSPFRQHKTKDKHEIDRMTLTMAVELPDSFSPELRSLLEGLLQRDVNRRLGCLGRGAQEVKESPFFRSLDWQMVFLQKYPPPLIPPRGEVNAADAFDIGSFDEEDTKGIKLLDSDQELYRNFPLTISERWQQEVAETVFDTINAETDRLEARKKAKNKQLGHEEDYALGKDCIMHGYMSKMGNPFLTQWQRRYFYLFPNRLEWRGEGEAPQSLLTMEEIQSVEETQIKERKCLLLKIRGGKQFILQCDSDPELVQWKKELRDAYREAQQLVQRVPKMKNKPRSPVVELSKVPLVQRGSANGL
UniProt P15056, sequence (whole entry, unmodified, looked up): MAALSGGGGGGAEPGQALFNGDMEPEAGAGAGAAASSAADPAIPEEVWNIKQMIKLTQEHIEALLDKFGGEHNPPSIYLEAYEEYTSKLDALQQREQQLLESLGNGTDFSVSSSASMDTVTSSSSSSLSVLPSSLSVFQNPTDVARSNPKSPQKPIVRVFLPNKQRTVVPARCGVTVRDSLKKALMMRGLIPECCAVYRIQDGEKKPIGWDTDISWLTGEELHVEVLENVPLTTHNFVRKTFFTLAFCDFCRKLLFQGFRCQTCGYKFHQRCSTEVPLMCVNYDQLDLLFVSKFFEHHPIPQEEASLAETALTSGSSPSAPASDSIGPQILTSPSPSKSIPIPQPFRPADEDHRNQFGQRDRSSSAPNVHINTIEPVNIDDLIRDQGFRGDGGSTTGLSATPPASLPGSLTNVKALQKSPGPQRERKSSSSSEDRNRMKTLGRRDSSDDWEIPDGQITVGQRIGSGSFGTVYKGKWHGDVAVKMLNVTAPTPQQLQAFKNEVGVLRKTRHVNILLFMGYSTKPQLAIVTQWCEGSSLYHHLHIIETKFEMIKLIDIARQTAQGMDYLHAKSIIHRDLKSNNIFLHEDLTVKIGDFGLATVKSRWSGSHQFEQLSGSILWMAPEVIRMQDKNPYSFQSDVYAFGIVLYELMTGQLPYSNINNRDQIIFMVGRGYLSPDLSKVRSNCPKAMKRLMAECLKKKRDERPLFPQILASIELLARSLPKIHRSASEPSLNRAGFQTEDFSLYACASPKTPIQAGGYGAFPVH

Series 1
Structure (SMILES): O=C1CCc2cc(Nc3cc(OC4CCOCC4)c([N+](=O)[O-])cc3Cl)ccc2N1
Effect on: cell-free assay
Technique: competition with immobilised ligand
Concentration: 1 µM
target	remaining binding [%]
cAMP-dependent protein kinase catalytic subunit beta (PRKACB, Homo sapiens, UniProt P22694)	100
Serine/threonine-protein kinase B-raf (BRAF, Homo sapiens, UniProt P15056, V600E)	100
Tyrosine-protein kinase ABL1, non-phosphorylated (ABL1, Homo sapiens, UniProt P00519, T315I)	99
Serine/threonine-protein kinase 17B (STK17B, Homo sapiens, UniProt O94768)	100
Ephrin type-B receptor 6 (EPHB6, Homo sapiens, UniProt O15197)	100
Serine/threonine-protein kinase Chk1 (CHEK1, Homo sapiens, UniProt O14757)	95
Beta-adrenergic receptor kinase 1 (GRK2, Homo sapiens, UniProt P25098)	87

Series 2
Target: Mitogen-activated protein kinase 10 (MAPK10, Homo sapiens, UniProt P53779)
UniProt P53779, sequence (whole entry, looked up): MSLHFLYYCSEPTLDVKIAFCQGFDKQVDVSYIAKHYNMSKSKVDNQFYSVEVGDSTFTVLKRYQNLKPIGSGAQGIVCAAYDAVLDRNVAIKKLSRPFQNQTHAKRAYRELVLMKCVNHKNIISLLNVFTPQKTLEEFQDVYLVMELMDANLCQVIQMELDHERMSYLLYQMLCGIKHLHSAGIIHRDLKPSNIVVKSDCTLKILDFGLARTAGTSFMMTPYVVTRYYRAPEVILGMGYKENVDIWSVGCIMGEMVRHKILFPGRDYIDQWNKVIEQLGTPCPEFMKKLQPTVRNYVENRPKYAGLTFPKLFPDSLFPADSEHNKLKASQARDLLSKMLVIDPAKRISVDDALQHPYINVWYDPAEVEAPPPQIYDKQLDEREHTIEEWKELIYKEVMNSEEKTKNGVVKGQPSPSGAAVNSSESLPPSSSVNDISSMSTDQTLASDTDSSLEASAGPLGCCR
Effect on: enzyme activity
Mode: inhibitor
Concentration: 0.5 µM
Relative to: control
Compound	remaining activity [%]
O=C1NC(=O)C(c2cn(CCCn3ccnc3)c3ccccc23)=C1Nc1ccccc1	100
COc1cc2ncnc(Nc3ccc(Oc4ccccc4)cc3)c2cc1OC	103
O=S(=O)(c1cccc2cnccc12)N1CCCNCC1	85.3
O=C(O)c1ccc2c3c1cccc3c(=O)n1c3ccccc3nc21	108
OCC(O)CCON=C1C(c2c(O)[nH]c3ccccc23)=Nc2ccccc21 (centres unmarked)	103
COc1ccc(OC)c2c(=S)c3ccccc3[nH]c12	108
COc1ccc(CNC(=O)Nc2ncc([N+](=O)[O-])s2)cc1	96.1
CC(C)[C@H](CO)Nc1nc(Nc2cc(N)cc(Cl)c2)c2ncn(C(C)C)c2n1	94.6
Cn1c2ccccc2c2c3c(c4c5ccccc5n(CCC#N)c4c21)CNC3=O	94.5
CN(C)c1ccc(C=C2C(=O)Nc3ccccc32)cc1	82.9
Nc1ncnc2n[nH]c(Nc3ccc(F)cc3)c12	100
COc1ccc(C(=O)Nc2sc3c(c2C(N)=O)CCCC3)cc1OC	84.5
Nc1[nH]nc2nc3ccccc3nc12	92.1
N#CC(C#N)=C(N)/C(C#N)=C/c1ccc(O)cc1	98.8
COc1cc2ncnc(Nc3ccc(F)c(Cl)c3)c2cc1OCCCN1CCOCC1	102

Series 3
Structure (SMILES): c1ccc(Oc2ccc(Nc3c4c(nc5ccccc35)CCC4)cc2)cc1
cell line	technique	concentration	time	notes	cytotoxicity
HEK293	resazurin	0.066 µM		10% serum	6%
HEK293	resazurin	0.0332 µM		10% serum	7% and 10%
RAW264.7	resazurin	0.0332 µM			-5% and 6%
PMA-differentiated THP-1 macrophages		0.08 µM	64 h		13% and 6%
RAW264.7	resazurin	0.0066 µM	64 h		-1% and -4%
PMA-differentiated THP-1 macrophages		0.4 µM	64 h		-1% and 5%

Series 4
Structure (SMILES): CC(=O)N[C@@H](Cc1c[nH]c2ccccc12)C(=O)N[C@@H](CCC(=O)C=[N+]=[N-])C(=O)OC(C)C
Technique: UPLC-MS/MS
Species: C57BL/6 CES1-/- mice
Medium: EL4 tumour
Route: subcutaneous
Dose: 0.3 mg/kg/day DON equivalent
Time: 5 days
Reading: higher = more metabolite
refers to	metabolite peak area
dGMP 3'	381000 a.u. and 81800 a.u. and 675000 a.u. and 966000 a.u. and 269000 a.u. and 394000 a.u.
tyrosine	5.05e+08 a.u. and 5.78e+08 a.u. and 6.52e+08 a.u. and 5.79e+08 a.u. and 7.04e+08 a.u. and 7.12e+08 a.u.
dAMP 3'	84600 a.u. and 251000 a.u. and 96100 a.u. and 111000 a.u. and 50400 a.u. and 150000 a.u.
2',3'-cyclic CMP	165000 a.u. and 665000 a.u. and 322000 a.u. and 630000 a.u. and 423000 a.u. and 676000 a.u.
